Published values from different studies.
Protocols differ between the studies behind these lines. ± gives the spread as reported.
ribH: 6,7-dimethyl-8-ribityllumazine synthase (ribH, Mycobacterium tuberculosis, UniProt P9WHE9)
Sequence of UniProt P9WHE9 (whole entry, looked up): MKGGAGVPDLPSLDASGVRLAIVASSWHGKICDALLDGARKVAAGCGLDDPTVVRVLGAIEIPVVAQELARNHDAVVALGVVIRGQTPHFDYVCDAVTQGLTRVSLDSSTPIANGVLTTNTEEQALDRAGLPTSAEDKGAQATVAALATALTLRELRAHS
RIPK1: Receptor-interacting serine/threonine-protein kinase 1 (RIPK1, Homo sapiens, UniProt Q13546)
Sequence of UniProt Q13546 (whole entry, looked up): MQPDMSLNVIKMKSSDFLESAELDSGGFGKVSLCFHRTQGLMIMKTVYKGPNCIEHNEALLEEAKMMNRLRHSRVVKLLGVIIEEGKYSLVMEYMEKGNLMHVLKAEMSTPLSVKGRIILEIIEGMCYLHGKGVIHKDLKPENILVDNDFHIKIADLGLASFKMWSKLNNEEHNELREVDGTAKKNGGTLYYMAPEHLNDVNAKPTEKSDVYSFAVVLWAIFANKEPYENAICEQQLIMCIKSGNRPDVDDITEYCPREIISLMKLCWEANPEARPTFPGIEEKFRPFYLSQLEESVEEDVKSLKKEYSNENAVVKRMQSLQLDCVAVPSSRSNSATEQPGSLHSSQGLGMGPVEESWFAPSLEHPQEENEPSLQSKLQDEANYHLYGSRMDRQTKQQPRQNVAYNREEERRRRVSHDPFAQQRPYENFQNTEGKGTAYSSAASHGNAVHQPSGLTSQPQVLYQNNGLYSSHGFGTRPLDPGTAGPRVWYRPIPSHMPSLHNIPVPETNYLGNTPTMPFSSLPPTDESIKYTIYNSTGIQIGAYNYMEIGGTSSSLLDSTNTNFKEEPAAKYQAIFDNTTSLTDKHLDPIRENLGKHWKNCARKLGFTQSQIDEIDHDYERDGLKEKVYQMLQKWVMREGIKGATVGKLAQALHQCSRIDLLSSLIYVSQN
TSPO A147T: Translocator protein, A147T (TSPO, Homo sapiens, UniProt P30536)
Sequence of UniProt P30536 (whole entry, unmodified, looked up): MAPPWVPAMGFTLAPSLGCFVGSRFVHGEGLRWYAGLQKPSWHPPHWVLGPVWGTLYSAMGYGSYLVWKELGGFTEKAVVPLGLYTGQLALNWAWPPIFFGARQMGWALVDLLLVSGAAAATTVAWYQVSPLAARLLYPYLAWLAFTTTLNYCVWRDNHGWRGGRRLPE
CYP2A6: Cytochrome P450 2A6 (CYP2A6, Homo sapiens, UniProt P11509)
Sequence of UniProt P11509 (whole entry, looked up): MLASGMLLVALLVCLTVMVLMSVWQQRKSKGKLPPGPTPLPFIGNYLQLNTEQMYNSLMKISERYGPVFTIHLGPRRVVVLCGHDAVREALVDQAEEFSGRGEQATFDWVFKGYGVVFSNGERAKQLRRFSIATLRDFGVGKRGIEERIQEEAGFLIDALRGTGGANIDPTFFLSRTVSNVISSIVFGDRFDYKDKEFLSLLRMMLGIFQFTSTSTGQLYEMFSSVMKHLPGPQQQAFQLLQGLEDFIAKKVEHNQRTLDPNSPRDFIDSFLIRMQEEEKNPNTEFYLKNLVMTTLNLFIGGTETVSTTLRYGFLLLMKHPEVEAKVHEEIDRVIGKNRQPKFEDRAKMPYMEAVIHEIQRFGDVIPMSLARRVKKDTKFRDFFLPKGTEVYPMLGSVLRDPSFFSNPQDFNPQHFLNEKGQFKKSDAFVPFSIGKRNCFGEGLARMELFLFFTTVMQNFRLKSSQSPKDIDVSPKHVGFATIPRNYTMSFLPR
HTR2B: 5-hydroxytryptamine receptor 2B (HTR2B, Homo sapiens, UniProt P41595)
Sequence of UniProt P41595 (whole entry, looked up): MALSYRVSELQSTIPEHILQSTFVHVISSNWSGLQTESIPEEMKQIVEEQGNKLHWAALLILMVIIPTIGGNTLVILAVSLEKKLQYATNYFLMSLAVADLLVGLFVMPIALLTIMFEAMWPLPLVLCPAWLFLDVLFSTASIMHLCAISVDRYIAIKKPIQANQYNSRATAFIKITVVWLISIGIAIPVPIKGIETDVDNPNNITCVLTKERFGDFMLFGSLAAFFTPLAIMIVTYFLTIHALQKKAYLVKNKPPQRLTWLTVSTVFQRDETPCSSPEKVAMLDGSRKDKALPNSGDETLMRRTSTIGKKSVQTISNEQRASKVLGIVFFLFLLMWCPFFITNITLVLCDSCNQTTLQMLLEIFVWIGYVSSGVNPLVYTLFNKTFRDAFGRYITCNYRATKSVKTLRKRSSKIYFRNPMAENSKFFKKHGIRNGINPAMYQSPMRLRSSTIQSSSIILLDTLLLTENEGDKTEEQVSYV
ANPEP: Aminopeptidase N (ANPEP, Sus scrofa, UniProt P15145)
Sequence of UniProt P15145 (whole entry, looked up): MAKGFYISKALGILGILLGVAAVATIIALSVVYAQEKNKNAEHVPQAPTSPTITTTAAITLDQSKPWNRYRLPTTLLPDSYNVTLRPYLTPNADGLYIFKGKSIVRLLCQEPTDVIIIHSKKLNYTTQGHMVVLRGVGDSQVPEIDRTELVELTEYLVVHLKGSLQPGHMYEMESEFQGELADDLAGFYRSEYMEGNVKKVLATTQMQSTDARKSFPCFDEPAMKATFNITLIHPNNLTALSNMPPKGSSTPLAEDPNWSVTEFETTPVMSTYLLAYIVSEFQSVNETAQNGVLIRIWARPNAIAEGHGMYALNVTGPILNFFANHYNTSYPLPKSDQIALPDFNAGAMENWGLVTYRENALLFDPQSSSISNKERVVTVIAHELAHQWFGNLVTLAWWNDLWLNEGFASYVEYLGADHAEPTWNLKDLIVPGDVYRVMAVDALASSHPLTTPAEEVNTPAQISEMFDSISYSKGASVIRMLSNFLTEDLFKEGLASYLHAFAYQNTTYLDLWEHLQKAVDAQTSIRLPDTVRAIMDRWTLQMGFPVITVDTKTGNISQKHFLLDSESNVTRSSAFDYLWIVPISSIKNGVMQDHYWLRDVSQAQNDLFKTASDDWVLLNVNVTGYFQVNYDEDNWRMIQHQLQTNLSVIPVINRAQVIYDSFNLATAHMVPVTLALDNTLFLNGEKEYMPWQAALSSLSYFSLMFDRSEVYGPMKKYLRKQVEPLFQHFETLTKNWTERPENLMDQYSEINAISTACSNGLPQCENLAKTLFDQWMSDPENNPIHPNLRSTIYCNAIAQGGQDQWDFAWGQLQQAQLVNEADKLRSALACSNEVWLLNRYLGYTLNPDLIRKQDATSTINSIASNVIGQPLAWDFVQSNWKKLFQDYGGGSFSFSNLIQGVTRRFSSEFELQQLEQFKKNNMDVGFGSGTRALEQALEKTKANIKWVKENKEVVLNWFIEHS
MAPK1: Mitogen-activated protein kinase 1 (MAPK1, Homo sapiens, UniProt P28482)
Sequence of UniProt P28482 (whole entry, looked up): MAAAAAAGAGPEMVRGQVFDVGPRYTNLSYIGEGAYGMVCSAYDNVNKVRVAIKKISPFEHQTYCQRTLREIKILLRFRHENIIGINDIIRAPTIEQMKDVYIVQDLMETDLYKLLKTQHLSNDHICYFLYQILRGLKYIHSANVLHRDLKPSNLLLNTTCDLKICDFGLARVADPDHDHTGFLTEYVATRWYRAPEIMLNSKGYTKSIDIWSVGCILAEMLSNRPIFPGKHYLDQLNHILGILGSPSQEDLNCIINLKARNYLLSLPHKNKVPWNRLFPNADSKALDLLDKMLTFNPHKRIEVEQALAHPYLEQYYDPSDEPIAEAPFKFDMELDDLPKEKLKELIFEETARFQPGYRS
Sequence of UniProt P43114 (whole entry, looked up): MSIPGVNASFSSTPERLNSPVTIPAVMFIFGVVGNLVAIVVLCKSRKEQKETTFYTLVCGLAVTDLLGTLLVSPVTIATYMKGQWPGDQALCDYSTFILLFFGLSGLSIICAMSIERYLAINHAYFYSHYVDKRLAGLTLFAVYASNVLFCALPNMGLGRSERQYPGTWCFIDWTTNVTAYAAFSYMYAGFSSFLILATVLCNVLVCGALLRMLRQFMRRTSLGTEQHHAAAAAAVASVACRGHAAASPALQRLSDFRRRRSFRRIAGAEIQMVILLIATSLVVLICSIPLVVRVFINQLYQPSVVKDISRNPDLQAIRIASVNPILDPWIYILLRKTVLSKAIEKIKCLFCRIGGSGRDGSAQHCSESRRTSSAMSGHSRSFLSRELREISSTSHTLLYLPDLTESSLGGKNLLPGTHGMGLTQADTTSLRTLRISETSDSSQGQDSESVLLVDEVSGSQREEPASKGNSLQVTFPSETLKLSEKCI
Sequence of UniProt Q03145 (whole entry, looked up): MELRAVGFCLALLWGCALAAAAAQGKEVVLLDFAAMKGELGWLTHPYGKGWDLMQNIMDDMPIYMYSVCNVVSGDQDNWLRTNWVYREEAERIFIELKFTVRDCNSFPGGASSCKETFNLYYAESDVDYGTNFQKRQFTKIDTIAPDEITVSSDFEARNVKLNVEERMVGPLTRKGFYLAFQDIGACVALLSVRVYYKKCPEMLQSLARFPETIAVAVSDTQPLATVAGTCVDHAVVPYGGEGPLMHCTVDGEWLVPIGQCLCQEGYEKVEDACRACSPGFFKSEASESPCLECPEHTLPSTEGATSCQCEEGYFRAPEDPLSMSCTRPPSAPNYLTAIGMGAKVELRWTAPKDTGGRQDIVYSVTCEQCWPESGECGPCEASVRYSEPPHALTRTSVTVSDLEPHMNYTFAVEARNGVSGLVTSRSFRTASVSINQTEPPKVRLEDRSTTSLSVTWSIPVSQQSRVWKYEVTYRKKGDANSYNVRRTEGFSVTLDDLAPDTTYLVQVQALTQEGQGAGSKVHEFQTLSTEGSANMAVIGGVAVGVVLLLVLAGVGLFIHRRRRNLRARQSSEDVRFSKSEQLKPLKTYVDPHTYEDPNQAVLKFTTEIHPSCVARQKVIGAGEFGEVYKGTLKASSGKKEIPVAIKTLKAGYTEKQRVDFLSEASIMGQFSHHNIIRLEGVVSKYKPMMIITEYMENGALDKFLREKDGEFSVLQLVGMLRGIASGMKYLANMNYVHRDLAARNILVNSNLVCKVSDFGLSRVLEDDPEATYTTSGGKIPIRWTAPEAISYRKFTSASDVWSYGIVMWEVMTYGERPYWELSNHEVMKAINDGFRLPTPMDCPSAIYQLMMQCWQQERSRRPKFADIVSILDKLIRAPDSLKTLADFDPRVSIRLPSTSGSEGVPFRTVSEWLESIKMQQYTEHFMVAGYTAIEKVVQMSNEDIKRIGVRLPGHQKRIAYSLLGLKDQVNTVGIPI

`O=C(O)c1ccc(/C=C/c2[nH]c(=O)[nH]c(=O)c2[N+](=O)[O-])cc1` has a Ki of 35 ± 10 µM (ribH; enzyme activity, inhibitor; pH 7.0).
`O=P(O)(O)OC[C@H]1N[C@H](COP(=O)(O)O)[C@@H](O)[C@@H]1O` gave a Ki of greater than 200 µM (Uridine 5'-monophosphate synthase, OPRT domain (UMPS, Homo sapiens, UniProt P11172); enzyme activity, inhibitor; pH 8.0, 25 °C, together with: orotidine 5'-monophosphate 500 µM, pyrophosphate 1 mM).
`COc1ccc2c(c1)C1=NN(C(C)=O)C(c3ccc(F)cc3)C1CC2` (stereo not drawn) gave a Ki of 4.5 ± 0.9 µM (RIPK1; binding, fluorescence polarisation competition; together with: fluorescein-necrostatin-1).
`COc1ccc(/C=C/c2[nH]c(=O)[nH]c(=O)c2[N+](=O)[O-])cc1O` gave a Ki of 52 ± 19 µM (ribH; enzyme activity, inhibitor; pH 7.0).
`CCN(Cc1ccccc1)C(=O)Cn1c2ccccc2c2cc(Br)ccc21` gave a Ki of 0.123 ± 0.0163 µM (TSPO A147T; radioligand binding; together with: [3H]PK11195).
With `COc1cccc(/C=C/c2[nH]c(=O)[nH]c(=O)c2[N+](=O)[O-])c1F` the Ki was 24 ± 6 µM (ribH; enzyme activity, inhibitor; pH 7.0).
The Ki of `CCCC/C=C/C=O` is reported as 9 ± 1 µM (CYP2A6; inhibitor; 30 min, pH 7.4).
For `O=c1[nH]c(/C=C/c2cccc(O)c2O)c([N+](=O)[O-])c(=O)[nH]1`, the Ki was 12 ± 4 µM (ribH; enzyme activity, inhibitor; pH 7.0).
For `CCN(CC)C(=O)Cn1c2ccccc2c2cc(-c3ccccc3OC)ccc21`, the Ki was 0.137 ± 0.0209 µM (TSPO A147T; radioligand binding; together with: [3H]PK11195).
`CCCCCCC=O` has a Ki of 16 ± 1 µM (CYP2A6; inhibitor; 30 min, pH 7.4).
With `CC1(CCN2CCc3ccccc3C2)Cc2cc(Cl)ccc2C1=O` (stereo not drawn) the Ki was 0.162 µM (HTR2B; radioligand binding; together with: [3H]LSD).
`CCCCC/C=C/C=O` has a Ki of 7 ± 1 µM (CYP2A6; inhibitor; 30 min, pH 7.4).
The Ki of `N#Cc1cc(Cc2ccc3c(ccc4ccccc43)c2C#N)cc2c1ccc1ccccc12` is reported as 2.9 µM (ANPEP; enzyme activity, inhibitor; 30 min preincubation, 37 °C, together with: L-Leu-pNA).
`CCOC(=O)C1(CCN2CCc3ccccc3C2)Cc2cc(Cl)ccc2C1=O` (stereo not drawn) gave a Ki of 0.0162 µM (HTR2B; ligand displacement, radioligand).
The Ki of `Cc1cccc(Nc2cc(Cl)nc(SCC(=O)O)n2)c1C` is reported as 45 µM (Aldo-keto reductase family 1 member B10 (AKR1B10, Homo sapiens, UniProt O60218); enzyme activity, inhibitor).
The Ki of `Nc1ccc(C(=O)O)cc1` is reported as 3.8 µM (mushroom tyrosinase; monophenolase activity, inhibitor; pH 6.8, 20 °C, together with: p-coumaric acid substrate).
For `COC(=O)C1(C)C=CC(=O)CC1` (stereo not drawn), the Ki was greater than 200 µM (MAPK1; ligand displacement, FP).
The Ki of `Cc1cccc(NC(=O)c2ccc(-c3cccc(C#N)c3)cc2)n1` is reported as greater than 10 µM (Metabotropic glutamate receptor 5 (Grm5, Rattus norvegicus, UniProt P31424); ligand displacement, radioligand; cell membranes).
`O=C(CC(F)(F)F)Nc1c(NC[C@H](O)[C@H](O)[C@H](O)CO)[nH]c(=O)[nH]c1=O` gave a Ki of 100 ± 20 µM (ribH; inhibitor; pH 7.0, together with: substrate 1 varied, other substrate 2 constant).
`O=c1[nH]c(/C=C/c2ccc(Br)cc2)c([N+](=O)[O-])c(=O)[nH]1` has a Ki of 26 ± 5 µM (ribH; enzyme activity, inhibitor; pH 7.0).
The Ki of `COc1ccncc1C=O` is reported as 1 ± 0.11 µM (Nicotinamidase (Plasmodium falciparum, UniProt O97284); competitive inhibitor; together with: nicotinamide).
For `C(=C1c2ccccc2-c2c1ccc1ccccc21)c1cc2c3c(cccc3c1)-c1ccccc1-2`, the Ki was 1.63 µM (ANPEP; enzyme activity, inhibitor; 30 min preincubation, 37 °C, together with: L-Leu-pNA).
With `C[C@@H](O[C@H]1OCCN(Cc2n[nH]c(=O)[nH]2)[C@H]1c1ccc(F)cc1)c1cc(C(F)(F)F)cc(C(F)(F)F)c1` the Ki was 15.5 µM (UDP-glucuronosyltransferase 2B7 (UGT2B7, Homo sapiens, UniProt P16662); enzyme activity, inhibitor; 30 min, pH 7.5).
The Ki of `C=Cc1ccc(C(=O)Nc2ccc([C@@H]3C[C@H]3N)cc2)cc1` (relative stereo) is reported as 2.7 µM (Lysine-specific histone demethylase 1A (KDM1A, Homo sapiens, UniProt O60341); enzyme activity, inhibitor).
The Ki of `Nc1ncnc2c1ncn2[C@@H]1O[C@H](COP(=O)(O)OP(=O)(O)OP(=O)(O)O)[C@@H](O)[C@H]1O` is reported as 7.6 ± 1.8 µM (Intestinal-type alkaline phosphatase (ALPI, Bos taurus, UniProt P19111); pH 8).
The Ki of `COc1cc(/C=C/C(=O)N2CCC=CC2=O)cc(OC)c1OC` is reported as 0.068 µM (Signal transducer and activator of transcription 3 (STAT3, Homo sapiens, UniProt P40763); binding to pY peptide, surface plasmon resonance).
With `CCCCCCCCCC=O` the Ki was 106 ± 29 µM (CYP2A6; inhibitor; 30 min, pH 7.4).
`Nc1nc2c(ncn2[C@@H]2O[C@@H]3COP(=O)(O)O[C@H]3[C@H]2O)c(=O)[nH]1` gave a Ki of 6 µM (Cyclic nucleotide-gated potassium channel (Spirochaeta thermophila, UniProt G0GA88); Tl+ flux, inhibitor, stopped-flow fluorescence; liposomes; together with: cAMP 200 µM).
`CCC#CC[C@H](C)[C@H](O)/C=C/[C@H]1CCC(=O)N1CCCCCCC(=O)O` has a Ki of 0.00111 µM (Prostaglandin E2 receptor EP4 subtype (Ptger4, Rattus norvegicus, UniProt P43114); ligand displacement, radioligand).
With `O=c1c(O)c(-c2ccc(O)cc2)oc2cc(O)ccc12` the Ki was 0.87 ± 0.21 µM (UDP-glucuronosyltransferase 1A1 (UGT1A1, Homo sapiens, UniProt P22309); glucuronidation, mixed-type inhibitor, recombinant enzyme; together with: 4'-hydroxyflavone substrate).
`CCN(CC)C(=O)Cn1c2ccccc2c2cc(Br)ccc21` has a Ki of 0.161 ± 0.0206 µM (TSPO A147T; radioligand binding; together with: [3H]PK11195).
For `CC(=O)O[C@@H]1CC[C@@]2(C)[C@H](CC[C@@H]3[C@@H]2CC[C@]2(C)[C@@H]([C@H](C)CCC(=O)O)CC[C@@H]32)C1`, the Ki was 88 ± 11 µM (Ephrin type-A receptor 2, ectodomain with ephrin-A1 (Mus musculus, UniProt Q03145); ephrin-A1 binding, inhibitor, ELISA, Schild analysis).
With `C#CCCOC(=O)[C@]1(C)C=C(C(=O)OC(C)(C)C)C(=O)CC1` the Ki was 1.4 µM (MAPK1; ligand displacement, FP).
`O=c1[nH]c(OC[C@H](O)[C@H](O)[C@H](O)CO)c([N+](=O)[O-])c(=O)[nH]1` gave a Ki of 60 ± 5 µM (ribH; inhibitor; pH 7.0, together with: substrate 1 varied, other substrate 2 constant).
With `CN1C(=O)C(Cc2c[nH]c3ccccc23)NC1=S` (stereo not drawn) the Ki was 4.1 ± 0.3 µM (RIPK1; binding, fluorescence polarisation competition; together with: fluorescein-necrostatin-1).
With `O=c1[nH]c(/C=C/c2ccc(F)cc2)c([N+](=O)[O-])c(=O)[nH]1` the Ki was 86 ± 51 µM (ribH; enzyme activity, inhibitor; pH 7.0).
For `O=C(O)c1ccccn1`, the Ki was 2930 µM (mushroom tyrosinase; diphenolase activity, inhibitor; pH 6.8, 20 °C, together with: caffeic acid substrate).
With `5′-deoxy-5′-Pro-DADMe-ImmA` the Ki was 0.0014 µM (MTA/SAH nucleosidase (Campylobacter jejuni subsp. jejuni, UniProt Z9IB28FKP7); inhibitor; slow-onset tight binding).
For `O=c1[nH]c(/C=C/c2ccccc2O)c([N+](=O)[O-])c(=O)[nH]1`, the Ki was 95 ± 6 µM (ribH; enzyme activity, inhibitor; pH 7.0).
`CCCCCCCCCCCCNC(=O)[C@@H]1CCCN1C(=O)[C@@H]1CCCN1` has a Ki of greater than 1000 µM (Coagulation factor XII (F12, Homo sapiens, UniProt P00748); enzyme activity, inhibitor).
`O=C(O)c1ccc(/C=C/c2[nH]c(=O)[nH]c(=O)c2[N+](=O)[O-])c(O)c1` has a Ki of 197 ± 112 µM (ribH; enzyme activity, inhibitor; pH 7.0).
With `COC(=O)C(=O)Nc1c(OC[C@H](O)[C@H](O)[C@H](O)CO)[nH]c(=O)[nH]c1=O` the Ki was 273 ± 55 µM (ribH; inhibitor; pH 7.0, together with: substrate 1 varied, other substrate 2 constant).

Some of these lines once more:
The Ki of `CCCC/C=C/C=O` is reported as 9 ± 1 µM (CYP2A6; inhibitor; 30 min, pH 7.4).
For `O=c1[nH]c(/C=C/c2cccc(O)c2O)c([N+](=O)[O-])c(=O)[nH]1`, the Ki was 12 ± 4 µM (ribH; enzyme activity, inhibitor; pH 7.0).
For `CCN(CC)C(=O)Cn1c2ccccc2c2cc(-c3ccccc3OC)ccc21`, the Ki was 0.137 ± 0.0209 µM (TSPO A147T; radioligand binding; together with: [3H]PK11195).
`CCCCCCC=O` has a Ki of 16 ± 1 µM (CYP2A6; inhibitor; 30 min, pH 7.4).
With `CC1(CCN2CCc3ccccc3C2)Cc2cc(Cl)ccc2C1=O` (stereo not drawn) the Ki was 0.162 µM (HTR2B; radioligand binding; together with: [3H]LSD).
`CCCCC/C=C/C=O` has a Ki of 7 ± 1 µM (CYP2A6; inhibitor; 30 min, pH 7.4).
